Assay results from different studies.
Each numbered part is a random draw from the data of one study; scales do not carry over between parts. Several values in a cell are separate wells, animals, samples, runs or records.
Sequence of UniProt Q8NFD2 (whole entry, looked up): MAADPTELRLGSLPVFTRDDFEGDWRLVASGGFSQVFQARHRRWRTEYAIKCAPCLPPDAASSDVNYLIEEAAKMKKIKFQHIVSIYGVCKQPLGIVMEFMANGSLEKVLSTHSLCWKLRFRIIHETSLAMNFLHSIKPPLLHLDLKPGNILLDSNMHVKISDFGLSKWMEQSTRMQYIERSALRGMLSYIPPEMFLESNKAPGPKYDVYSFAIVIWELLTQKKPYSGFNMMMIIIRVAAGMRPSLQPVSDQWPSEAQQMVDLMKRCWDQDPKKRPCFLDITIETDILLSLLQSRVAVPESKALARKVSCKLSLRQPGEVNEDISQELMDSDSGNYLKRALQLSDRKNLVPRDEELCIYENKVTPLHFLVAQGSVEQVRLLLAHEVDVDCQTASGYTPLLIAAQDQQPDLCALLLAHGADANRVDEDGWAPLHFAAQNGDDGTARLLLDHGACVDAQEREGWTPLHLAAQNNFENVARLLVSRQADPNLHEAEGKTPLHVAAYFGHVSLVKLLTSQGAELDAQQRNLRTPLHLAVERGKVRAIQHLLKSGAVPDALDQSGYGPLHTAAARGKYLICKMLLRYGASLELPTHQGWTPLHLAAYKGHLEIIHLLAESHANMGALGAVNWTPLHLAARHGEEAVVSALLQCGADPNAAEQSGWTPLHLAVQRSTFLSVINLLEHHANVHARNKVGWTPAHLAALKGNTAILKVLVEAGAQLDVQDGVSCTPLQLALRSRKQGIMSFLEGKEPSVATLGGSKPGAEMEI
Sequence of UniProt Q15208 (whole entry, looked up): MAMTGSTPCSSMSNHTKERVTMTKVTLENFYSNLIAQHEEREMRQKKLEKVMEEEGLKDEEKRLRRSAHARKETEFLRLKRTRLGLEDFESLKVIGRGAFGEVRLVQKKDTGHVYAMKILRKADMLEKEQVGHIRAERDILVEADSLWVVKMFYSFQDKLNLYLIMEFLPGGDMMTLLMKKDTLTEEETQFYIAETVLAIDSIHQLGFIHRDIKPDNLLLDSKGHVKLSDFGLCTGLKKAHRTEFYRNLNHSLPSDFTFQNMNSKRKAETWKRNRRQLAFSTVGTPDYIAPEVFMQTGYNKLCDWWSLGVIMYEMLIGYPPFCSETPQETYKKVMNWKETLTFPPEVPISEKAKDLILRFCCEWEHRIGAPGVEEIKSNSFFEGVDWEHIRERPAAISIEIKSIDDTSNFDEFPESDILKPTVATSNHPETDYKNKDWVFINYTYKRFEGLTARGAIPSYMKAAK
Sequence of UniProt Q02156 (whole entry, looked up): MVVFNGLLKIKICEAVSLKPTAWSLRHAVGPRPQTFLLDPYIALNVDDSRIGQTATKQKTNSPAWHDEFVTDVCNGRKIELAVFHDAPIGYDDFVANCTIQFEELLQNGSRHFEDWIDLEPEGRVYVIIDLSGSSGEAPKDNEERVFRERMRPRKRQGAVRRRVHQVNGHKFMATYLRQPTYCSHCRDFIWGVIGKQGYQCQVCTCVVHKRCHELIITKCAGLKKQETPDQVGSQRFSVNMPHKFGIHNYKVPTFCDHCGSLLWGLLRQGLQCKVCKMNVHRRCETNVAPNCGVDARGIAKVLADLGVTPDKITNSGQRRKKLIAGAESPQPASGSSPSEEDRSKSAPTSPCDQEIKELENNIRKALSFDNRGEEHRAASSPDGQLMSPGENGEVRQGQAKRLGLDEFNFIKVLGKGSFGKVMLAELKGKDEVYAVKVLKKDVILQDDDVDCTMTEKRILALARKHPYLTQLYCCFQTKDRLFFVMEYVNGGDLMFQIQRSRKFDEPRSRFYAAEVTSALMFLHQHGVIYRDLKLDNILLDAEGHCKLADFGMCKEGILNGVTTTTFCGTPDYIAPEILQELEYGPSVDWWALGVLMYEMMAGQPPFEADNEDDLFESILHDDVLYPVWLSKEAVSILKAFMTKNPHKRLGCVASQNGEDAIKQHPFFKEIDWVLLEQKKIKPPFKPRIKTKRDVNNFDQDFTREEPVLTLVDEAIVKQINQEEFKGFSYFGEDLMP

Study 1 — effect on: enzyme activity; action: inhibitor; concentration: 77 µM; baseline: untreated; quantity: remaining activity
Target: DNA polymerase theta, ATPase domain (POLQ, Homo sapiens, UniProt O75417)
Sequence of UniProt O75417 (whole entry, unmodified, looked up): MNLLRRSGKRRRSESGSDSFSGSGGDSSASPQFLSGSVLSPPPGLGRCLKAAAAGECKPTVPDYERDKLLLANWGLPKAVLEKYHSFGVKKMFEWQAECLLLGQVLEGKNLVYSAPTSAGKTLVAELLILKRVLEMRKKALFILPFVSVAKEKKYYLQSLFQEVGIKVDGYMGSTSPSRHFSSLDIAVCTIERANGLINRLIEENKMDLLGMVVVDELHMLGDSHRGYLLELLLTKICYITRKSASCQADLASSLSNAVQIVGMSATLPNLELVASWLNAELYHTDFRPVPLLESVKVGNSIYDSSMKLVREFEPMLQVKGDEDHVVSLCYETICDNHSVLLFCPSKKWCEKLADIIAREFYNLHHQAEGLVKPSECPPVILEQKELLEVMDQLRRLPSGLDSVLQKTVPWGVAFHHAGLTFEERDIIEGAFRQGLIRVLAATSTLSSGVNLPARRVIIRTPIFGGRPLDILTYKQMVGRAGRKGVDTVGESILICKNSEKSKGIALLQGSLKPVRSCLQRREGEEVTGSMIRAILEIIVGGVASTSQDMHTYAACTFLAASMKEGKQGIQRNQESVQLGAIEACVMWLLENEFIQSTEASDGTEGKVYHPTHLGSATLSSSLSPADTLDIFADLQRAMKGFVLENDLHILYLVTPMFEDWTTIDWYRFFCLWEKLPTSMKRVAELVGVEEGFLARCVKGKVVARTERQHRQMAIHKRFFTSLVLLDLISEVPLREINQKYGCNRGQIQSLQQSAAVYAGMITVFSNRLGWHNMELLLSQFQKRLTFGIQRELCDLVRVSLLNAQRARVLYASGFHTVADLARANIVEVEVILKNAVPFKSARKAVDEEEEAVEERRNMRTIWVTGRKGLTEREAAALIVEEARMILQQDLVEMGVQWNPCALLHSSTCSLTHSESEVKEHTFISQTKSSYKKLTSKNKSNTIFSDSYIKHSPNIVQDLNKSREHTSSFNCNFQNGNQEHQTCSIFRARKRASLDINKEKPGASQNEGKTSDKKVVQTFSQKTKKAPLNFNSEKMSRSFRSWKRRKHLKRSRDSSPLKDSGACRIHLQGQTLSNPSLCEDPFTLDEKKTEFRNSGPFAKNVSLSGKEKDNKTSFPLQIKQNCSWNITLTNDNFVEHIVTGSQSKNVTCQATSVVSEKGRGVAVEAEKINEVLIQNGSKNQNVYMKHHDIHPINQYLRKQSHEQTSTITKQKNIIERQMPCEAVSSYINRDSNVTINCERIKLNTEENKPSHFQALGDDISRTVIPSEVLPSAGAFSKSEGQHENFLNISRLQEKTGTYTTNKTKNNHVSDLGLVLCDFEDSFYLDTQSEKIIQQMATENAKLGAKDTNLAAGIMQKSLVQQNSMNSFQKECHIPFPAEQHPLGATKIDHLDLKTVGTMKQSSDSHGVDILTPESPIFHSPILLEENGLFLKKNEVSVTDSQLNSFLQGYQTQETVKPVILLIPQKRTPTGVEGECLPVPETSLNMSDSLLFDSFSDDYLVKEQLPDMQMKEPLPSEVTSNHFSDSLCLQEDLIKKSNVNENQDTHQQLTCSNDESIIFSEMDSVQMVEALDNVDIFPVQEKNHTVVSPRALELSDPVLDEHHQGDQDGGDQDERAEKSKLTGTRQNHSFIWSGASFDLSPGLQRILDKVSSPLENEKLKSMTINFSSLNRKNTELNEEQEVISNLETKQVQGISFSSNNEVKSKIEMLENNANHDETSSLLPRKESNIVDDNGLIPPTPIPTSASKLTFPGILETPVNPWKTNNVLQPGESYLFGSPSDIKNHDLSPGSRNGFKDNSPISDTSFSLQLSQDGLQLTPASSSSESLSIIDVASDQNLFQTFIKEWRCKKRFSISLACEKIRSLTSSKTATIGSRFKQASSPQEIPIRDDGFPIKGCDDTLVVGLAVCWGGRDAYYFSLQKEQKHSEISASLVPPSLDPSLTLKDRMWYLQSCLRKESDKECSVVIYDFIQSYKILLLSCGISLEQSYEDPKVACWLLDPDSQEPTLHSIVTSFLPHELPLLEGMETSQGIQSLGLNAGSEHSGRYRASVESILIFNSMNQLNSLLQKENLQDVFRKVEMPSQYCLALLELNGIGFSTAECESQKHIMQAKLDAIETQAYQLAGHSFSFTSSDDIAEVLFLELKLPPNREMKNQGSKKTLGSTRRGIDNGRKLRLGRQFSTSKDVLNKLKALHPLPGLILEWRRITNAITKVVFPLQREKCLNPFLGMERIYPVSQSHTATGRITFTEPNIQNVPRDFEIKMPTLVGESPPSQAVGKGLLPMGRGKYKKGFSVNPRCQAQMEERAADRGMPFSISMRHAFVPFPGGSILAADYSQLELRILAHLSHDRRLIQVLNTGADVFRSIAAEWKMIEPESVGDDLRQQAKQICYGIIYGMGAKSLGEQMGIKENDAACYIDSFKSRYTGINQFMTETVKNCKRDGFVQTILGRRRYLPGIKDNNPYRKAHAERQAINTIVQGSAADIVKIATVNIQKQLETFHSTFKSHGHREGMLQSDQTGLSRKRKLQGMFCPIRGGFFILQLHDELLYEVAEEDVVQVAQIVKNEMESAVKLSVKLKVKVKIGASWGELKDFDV
C[C@H](NC(=O)[C@@H](O)c1cc(F)cc(F)c1)C(=O)N[C@@H]1C(=O)N(C)c2ccccc2-c2ccccc21: 99.7%
O=C1NC(c2cccc([N+](=O)[O-])c2)=CCN1c1ccccc1O: 106%
C#C[C@]1(O)CC[C@H]2[C@@H]3CCc4cc(OC)ccc4[C@H]3CC[C@@]21C: 104% and 101%
Nc1nc(OCc2ccccc2)c2nc[nH]c2n1: 97.2%
CCOC(=O)Oc1c(OC)cc(C(=O)O[C@@H]2C[C@@H]3CN4CCc5c([nH]c6cc(OC)ccc56)[C@H]4C[C@@H]3[C@H](C(=O)OC)[C@H]2OC)cc1OC: 100%
O=C(NOCC1CC1)c1cc(Br)c(F)c(F)c1Nc1ccc(I)cc1Cl: 94.1%
Cc1c(NC(C)C)c(=O)n(-c2ccccc2)n1C: 94%
COc1c(C)c2c(c(O)c1C/C=C(\C)CCC(=O)O)C(=O)OC2: 93.1% and 91.4%
O=C1NC(=O)c2c1c1c3ccccc3[nH]c1c1[nH]c3cc(Br)ccc3c21: 120%
CN(C)CCOC(=O)C(c1ccccc1)C1(O)CCCC1 (centres unmarked): 99.7%
C[C@]12CC[C@@H]3c4ccc(O)cc4CC[C@H]3[C@@H]1C[C@@H](O)[C@@H]2O: 100% and 94%
Nc1nc(=O)c2c([nH]1)NCC(CNc1ccc(C(=O)N[C@@H](CCC(=O)O)C(=O)O)cc1)N2C=O (mixture of isomers): 109%

Study 2 — effect on: enzyme activity; action: inhibitor; concentration: 10 µM; quantity: inhibition
Target: Calcium/calmodulin-dependent protein kinase type II subunit alpha (CAMK2A, Homo sapiens, UniProt Q9UQM7)
Sequence of UniProt Q9UQM7 (whole entry, looked up): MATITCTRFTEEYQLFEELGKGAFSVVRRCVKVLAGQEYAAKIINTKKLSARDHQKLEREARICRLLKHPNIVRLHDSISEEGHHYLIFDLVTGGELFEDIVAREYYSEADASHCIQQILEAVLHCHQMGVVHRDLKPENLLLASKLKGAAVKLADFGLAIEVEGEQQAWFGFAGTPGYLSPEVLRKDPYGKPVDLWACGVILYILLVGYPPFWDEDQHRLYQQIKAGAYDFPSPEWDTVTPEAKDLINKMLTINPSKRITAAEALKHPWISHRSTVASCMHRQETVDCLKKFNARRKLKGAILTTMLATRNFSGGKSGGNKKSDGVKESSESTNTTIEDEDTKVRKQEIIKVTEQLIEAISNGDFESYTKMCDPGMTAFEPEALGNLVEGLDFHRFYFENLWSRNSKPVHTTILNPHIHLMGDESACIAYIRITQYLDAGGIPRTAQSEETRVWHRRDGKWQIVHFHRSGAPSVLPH
Cn1c(Cn2ccc(C(F)(F)F)c(Oc3cc(Cl)cc(C#N)c3)c2=O)n[nH]c1=O: -6%
O=C1N=C(O)CN1/N=C/c1ccc(-c2ccc([N+](=O)[O-])cc2)o1: -8%
C=CCSC[C@H](N)C(=O)O: -19%
Nc1cc(N2CCCCC2)nc(N)[n+]1OS(=O)(=O)[O-]: 3%
COc1cc(/C=C/C(=O)O[C@H]2[C@H](O)[C@@H](CO)O[C@@]2(CO)O[C@H]2O[C@H](CO)[C@@H](O)[C@H](O)[C@H]2O)cc(OC)c1OC: 18%
COc1cc2c(=O)c3c(O)c([C@@H]4O[C@H](CO[C@@H]5OC[C@](O)(CO)[C@H]5O)[C@@H](O)[C@H](O)[C@H]4O)c(O)cc3oc2cc1O: 16%
CCCC(CCC)C(N)=O: -8%
N[C@H](Cc1c[nH]c2ccccc12)C(=O)O: 2%
CCCCCCCCCCCC[N+](C)(C)CCOc1ccccc1: -1%
CC[C@H](O)C(=O)O: 7%
C[C@@]12CCc3occc3[C@H]1CC[C@@]13C[C@@H](CC[C@H]12)[C@@](O)(CO)C3: 35%
Oc1cc(O)c2c(c1)O[C@@]1(c3ccc(O)c(O)c3)Oc3cc(O)c4c(c3[C@@H]2[C@H]1O)O[C@H](c1ccc(O)c(O)c1)[C@H](O)C4: -42%
CCOC(CN1CCN(CC(C)C(=O)c2ccccc2)CC1)c1ccccc1 (centres unmarked): -1%

Study 3 — concentration: 1 µM; quantity: remaining binding
Compound: CO[C@@H](C)c1c(Nc2ccc([C@H](N(C)C(=O)C3CCS(=O)(=O)CC3)C(F)(F)F)cc2)cnc2cc(Cl)nn12
Receptor-type tyrosine-protein kinase FLT3 (FLT3, Homo sapiens, UniProt P36888, R834Q); cell-free assay, competition with immobilised ligand: 100%
Serine/threonine-protein kinase Nek3 (NEK3, Homo sapiens, UniProt P51956); binding, competition with immobilised ligand: 40%
Mitogen-activated protein kinase kinase kinase 6 (MAP3K6, Homo sapiens, UniProt O95382); cell-free assay, competition with immobilised ligand: 100%
Serine/threonine-protein kinase pim-3 (PIM3, Homo sapiens, UniProt Q86V86); cell-free assay, competition with immobilised ligand: 86%
Tyrosine-protein kinase ABL1, phosphorylated (ABL1, Homo sapiens, UniProt P00519, E255K); binding, competition with immobilised ligand: 76%
Activin receptor type-2A (ACVR2A, Homo sapiens, UniProt P27037); cell-free assay, competition with immobilised ligand: 93%
Glycogen synthase kinase-3 beta (GSK3B, Homo sapiens, UniProt P49841); cell-free assay, competition with immobilised ligand: 100%
Tyrosine-protein kinase ABL1, phosphorylated (ABL1, Homo sapiens, UniProt P00519, M351T); cell-free assay, competition with immobilised ligand: 65%
Serine/threonine-protein kinase Chk1 (CHEK1, Homo sapiens, UniProt O14757); cell-free assay, competition with immobilised ligand: 91%
Serine/threonine-protein kinase MRCK gamma (CDC42BPG, Homo sapiens, UniProt Q6DT37); competition binding: 87%
Mast/stem cell growth factor receptor Kit (KIT, Homo sapiens, UniProt P10721); cell-free assay, competition with immobilised ligand: 100%
Tyrosine-protein kinase receptor Tie-1 (TIE1, Homo sapiens, UniProt P35590); cell-free assay, competition with immobilised ligand: 92%
Mitogen-activated protein kinase kinase kinase kinase 3 (MAP4K3, Homo sapiens, UniProt Q8IVH8); cell-free assay, competition with immobilised ligand: 99%
Serine/threonine-protein kinase 24 (STK24, Homo sapiens, UniProt Q9Y6E0); cell-free assay, competition with immobilised ligand: 83%
Serine/threonine-protein kinase MRCK beta (CDC42BPB, Homo sapiens, UniProt Q9Y5S2); cell-free assay, competition with immobilised ligand: 81%
Ankyrin repeat and protein kinase domain-containing protein 1 (ANKK1, Homo sapiens, UniProt Q8NFD2); cell-free assay, competition with immobilised ligand: 100%
Platelet-derived growth factor receptor alpha (PDGFRA, Homo sapiens, UniProt P16234); cell-free assay, competition with immobilised ligand: 100%
Receptor-type tyrosine-protein kinase FLT3 (FLT3, Homo sapiens, UniProt P36888, D835H); cell-free assay, competition with immobilised ligand: 75%
LIM domain kinase 2 (LIMK2, Homo sapiens, UniProt P53671); cell-free assay, competition with immobilised ligand: 91%
Mitogen-activated protein kinase kinase kinase 11 (MAP3K11, Homo sapiens, UniProt Q16584); cell-free assay, competition with immobilised ligand: 79%
Cyclin-dependent kinase 13 (CDK13, Homo sapiens, UniProt Q14004); cell-free assay, competition with immobilised ligand: 100%
Homeodomain-interacting protein kinase 1 (HIPK1, Homo sapiens, UniProt Q86Z02); binding, competition with immobilised ligand: 40%

Study 4 — action: inhibitor; concentration: 5 µM; quantity: log2 fold change
Structure (SMILES): COc1cc(/C=C(\C#N)C(=O)c2ccc(O)c(O)c2)cc(I)c1O
human CCDC6-PDGFRB fusion; kinase–CDC37 interaction; baseline: vehicle: -0.016
Serine/threonine-protein kinase 38 (STK38, Homo sapiens, UniProt Q15208); kinase-CDC37 interaction; human cells; baseline: vehicle: 0.09
Protein-tyrosine kinase 2-beta (PTK2B, Homo sapiens, UniProt Q14289); kinase activity; cell-based kinome screen; baseline: vehicle: 0.072
Ribosomal protein S6 kinase alpha-2 (RPS6KA2, Homo sapiens, UniProt Q15349); kinase activity; cell-based kinome screen; baseline: vehicle: -0.24
Serine/threonine-protein kinase 32C (STK32C, Homo sapiens, UniProt Q86UX6); kinase activity; cell-based kinome screen; baseline: vehicle: 0.327
ALK tyrosine kinase receptor (ALK, Homo sapiens, UniProt Q9UM73, T1151M); cell-based kinome profiling; human cells; baseline: vehicle control: 0.064
Protein kinase C epsilon type (PRKCE, Homo sapiens, UniProt Q02156); cell-based kinome screen; human cells; baseline: untreated control: 0.504
Aurora kinase B (AURKB, Homo sapiens, UniProt Q96GD4); kinase-CDC37 interaction; human cells; baseline: vehicle: -0.237
kinase–CDC37 interaction; kinase–CDC37 binding; human cells; oncogenic TPM3-ALK fusion; baseline: vehicle: 0.207
